{"sequences": {"note": "By UniProt entry, the sequences of proteins in these tests, tags left out.", "UniProt P41145, whole entry": "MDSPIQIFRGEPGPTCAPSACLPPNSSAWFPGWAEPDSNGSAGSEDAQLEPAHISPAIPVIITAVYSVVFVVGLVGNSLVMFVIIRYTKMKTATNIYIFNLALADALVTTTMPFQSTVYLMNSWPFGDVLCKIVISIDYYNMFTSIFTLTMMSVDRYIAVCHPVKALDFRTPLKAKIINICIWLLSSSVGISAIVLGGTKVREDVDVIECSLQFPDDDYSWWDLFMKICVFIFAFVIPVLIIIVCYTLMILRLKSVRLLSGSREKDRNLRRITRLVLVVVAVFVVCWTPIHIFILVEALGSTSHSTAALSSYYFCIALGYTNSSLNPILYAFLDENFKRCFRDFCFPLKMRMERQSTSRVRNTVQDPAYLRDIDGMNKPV"}, "data": "Assay results pooled from the literature", "note": "Numbers after ± are the reported error."}
{"Substance": "CN1CC[C@]23c4c5ccc(O)c4O[C@H]2[C@@H](O)C=C[C@H]3[C@H]1C5", "system": "C57BL/6J male mice", "conditions": "subcutaneous, dose not given", "scale": "reference: baseline", "measurement": "maximal body temperature change", "value": "-6 °C"}
{"Substance": "cisplatin", "assay": "UV-Vis spectroscopy", "system": "0.1% DMSO in water", "conditions": "1 mM", "measurement": "saturating cyanide concentration", "value": "~25 mM"}
{"Substance": "C[n+]1ccccc1C=NO", "assay": "reactivator, up-and-down method", "system": "mice", "scale": "reference: NIMP LD50 untreated", "measurement": "protective ratio", "value": "1.07 fold NIMP LD50"}
{"Substance": "O=C(N[C@H]1CC[C@@]2(O)[C@H]3Cc4ccc(O)c5c4[C@@]2(CCN3CC2CC2)[C@H]1O5)c1cccc2cc[nH]c12", "assay": "antagonist, drug discrimination", "system": "rat", "conditions": "subcutaneous, 10 mg/kg, trained fentanyl 0.04 mg/kg vs saline, added: fentanyl", "measurement": "duration of attenuation", "value": "≤ 300 min"}
{"Substance": "NC12CC3CC(CC(C3)C1)C2", "target or system": "Influenza A virus", "assay": "viral replication", "system": "MDCK, A/Swine/Indiana/24-0218/2010 (H1N2)", "measurement": "EC50", "value": "≥ 100000 nM"}
{"Substance": "hydroxocobalamin", "assay": "survival", "system": "zebrafish larvae 6 dpf", "conditions": "4 h, DMSO solution, added: KCN 100 µM", "measurement": "EC100", "value": "100 µM"}
{"Substance": "Pillar[6]MaxQ", "assay": "host-guest binding, isothermal titration calorimetry", "system": "20 mM sodium phosphate buffer", "conditions": "pH 7.4, added: phencyclidine", "measurement": "Kd", "value": "17.1 nM"}
{"Substance": "CCC1C(=O)N(C2CCN(CCCc3ccccc3)CC2)c2ccccc21 (stereo not drawn)", "target or system": "OPRK1 (Homo sapiens, UniProt P41145)", "assay": "radioligand displacement", "conditions": "added: tritiated U-69593", "measurement": "Ki", "value": "468 ± 14.7 nM"}
{"Substance": "AEOL 10150", "assay": "multiplex immunoassay", "system": "rat, status epilepticus, piriform cortex", "conditions": "sc, 7 mg/kg every 4 h, 24 h, from 5 min post-SE", "measurement": "TNF-α increase", "value": "decreased"}
{"Substance": "O/N=C/c1cc[n+](COC[n+]2ccc(/C=N/O)cc2)cc1.[Cl-].[Cl-]", "assay": "reactivator, up-and-down method", "system": "mice", "scale": "reference: NIMP LD50 untreated", "measurement": "protective ratio", "value": "2.85 fold NIMP LD50"}
{"Substance": "Oc1cccc(N2[C@@H]3CC[C@H]2CN(CCCc2ccccc2)C3)c1", "assay": "antinociception reversal", "system": "mouse", "conditions": "intraperitoneal, 15 min, added: fentanyl 1 mg/kg ip", "measurement": "naltrexone ID50", "value": "0.408 mg/kg"}
{"Substance": "CO[C@]12CC[C@@]3(C[C@@H]1[C@](C)(O)c1ccccc1)[C@H]1Cc4ccc(O)c5c4[C@@]3(CCN1CC1CC1)[C@H]2O5", "assay": "antinociception, antagonist, hot-plate test", "system": "mice", "conditions": "dose not given, added: morphine and ethylketocyclazocine", "measurement": "duration of antagonism", "value": "≤ 24 h"}
{"note": "Excerpt of the above:"}
{"Substance": "C[n+]1ccccc1C=NO", "assay": "reactivator, up-and-down method", "system": "mice", "scale": "reference: NIMP LD50 untreated", "measurement": "protective ratio", "value": "1.07 fold NIMP LD50"}
